Measured values gathered from unrelated publications.
Lines come from different studies, so protocols differ. Values joined by “and” are separate records of one study, mostly repeats; a detail may differ. ± gives the spread as reported.
CDK4: Cyclin-dependent kinase 4 (CDK4, Homo sapiens, UniProt P11802)
UniProt P11802, sequence (whole entry, looked up): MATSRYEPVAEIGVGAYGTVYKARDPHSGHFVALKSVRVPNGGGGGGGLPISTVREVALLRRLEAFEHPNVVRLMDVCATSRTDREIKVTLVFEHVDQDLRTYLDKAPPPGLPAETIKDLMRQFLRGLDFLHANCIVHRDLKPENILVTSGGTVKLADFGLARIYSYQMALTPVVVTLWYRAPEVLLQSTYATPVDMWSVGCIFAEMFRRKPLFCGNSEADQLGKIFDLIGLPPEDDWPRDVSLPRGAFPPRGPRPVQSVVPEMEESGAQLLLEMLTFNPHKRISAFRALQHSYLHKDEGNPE
DYRK1A: Dual specificity tyrosine-phosphorylation-regulated kinase 1A (DYRK1A, Homo sapiens, UniProt Q13627)
Mc1r: Melanocyte-stimulating hormone receptor (Mc1r, Mus musculus, UniProt Q01727)
UniProt Q01727, sequence (whole entry, looked up): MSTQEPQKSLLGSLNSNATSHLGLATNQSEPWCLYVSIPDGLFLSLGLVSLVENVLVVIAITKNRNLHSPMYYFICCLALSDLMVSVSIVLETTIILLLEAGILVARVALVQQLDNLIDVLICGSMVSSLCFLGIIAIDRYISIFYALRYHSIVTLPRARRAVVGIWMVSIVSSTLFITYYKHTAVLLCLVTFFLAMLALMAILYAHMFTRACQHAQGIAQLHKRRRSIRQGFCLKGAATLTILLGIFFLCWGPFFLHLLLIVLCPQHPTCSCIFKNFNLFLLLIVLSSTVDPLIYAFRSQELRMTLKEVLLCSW
UCHL1: Ubiquitin carboxyl-terminal hydrolase isozyme L1 (UCHL1, Homo sapiens, UniProt P09936)
UniProt P09936, sequence (whole entry, looked up): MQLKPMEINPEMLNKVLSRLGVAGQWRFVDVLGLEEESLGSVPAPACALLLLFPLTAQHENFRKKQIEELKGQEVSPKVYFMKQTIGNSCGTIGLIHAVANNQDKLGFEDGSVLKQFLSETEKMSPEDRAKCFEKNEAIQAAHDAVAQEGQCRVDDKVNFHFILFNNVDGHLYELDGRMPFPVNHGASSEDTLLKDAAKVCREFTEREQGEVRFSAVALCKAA
MARS2: Methionine--tRNA ligase, mitochondrial (MARS2, Homo sapiens, UniProt Q96GW9)
UniProt Q96GW9, sequence (whole entry, looked up): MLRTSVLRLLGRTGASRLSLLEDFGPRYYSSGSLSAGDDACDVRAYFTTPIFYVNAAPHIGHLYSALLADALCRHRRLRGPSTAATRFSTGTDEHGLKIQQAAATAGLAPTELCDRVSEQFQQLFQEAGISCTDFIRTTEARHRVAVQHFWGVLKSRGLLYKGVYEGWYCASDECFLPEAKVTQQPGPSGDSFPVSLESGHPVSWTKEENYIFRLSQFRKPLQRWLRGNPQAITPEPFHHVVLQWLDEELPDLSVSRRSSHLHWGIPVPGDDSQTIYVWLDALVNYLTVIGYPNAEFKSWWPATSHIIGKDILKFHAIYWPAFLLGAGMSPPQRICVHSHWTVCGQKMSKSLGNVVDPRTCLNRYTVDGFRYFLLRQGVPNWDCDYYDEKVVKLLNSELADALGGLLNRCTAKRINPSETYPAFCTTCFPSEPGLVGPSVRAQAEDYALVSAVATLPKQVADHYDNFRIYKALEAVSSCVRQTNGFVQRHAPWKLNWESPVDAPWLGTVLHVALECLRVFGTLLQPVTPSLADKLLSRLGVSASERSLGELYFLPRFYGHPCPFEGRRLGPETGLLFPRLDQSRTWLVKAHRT
Gria2: Glutamate receptor 2 (Gria2, Rattus norvegicus, UniProt P19491)
UniProt P19491, sequence (whole entry, looked up): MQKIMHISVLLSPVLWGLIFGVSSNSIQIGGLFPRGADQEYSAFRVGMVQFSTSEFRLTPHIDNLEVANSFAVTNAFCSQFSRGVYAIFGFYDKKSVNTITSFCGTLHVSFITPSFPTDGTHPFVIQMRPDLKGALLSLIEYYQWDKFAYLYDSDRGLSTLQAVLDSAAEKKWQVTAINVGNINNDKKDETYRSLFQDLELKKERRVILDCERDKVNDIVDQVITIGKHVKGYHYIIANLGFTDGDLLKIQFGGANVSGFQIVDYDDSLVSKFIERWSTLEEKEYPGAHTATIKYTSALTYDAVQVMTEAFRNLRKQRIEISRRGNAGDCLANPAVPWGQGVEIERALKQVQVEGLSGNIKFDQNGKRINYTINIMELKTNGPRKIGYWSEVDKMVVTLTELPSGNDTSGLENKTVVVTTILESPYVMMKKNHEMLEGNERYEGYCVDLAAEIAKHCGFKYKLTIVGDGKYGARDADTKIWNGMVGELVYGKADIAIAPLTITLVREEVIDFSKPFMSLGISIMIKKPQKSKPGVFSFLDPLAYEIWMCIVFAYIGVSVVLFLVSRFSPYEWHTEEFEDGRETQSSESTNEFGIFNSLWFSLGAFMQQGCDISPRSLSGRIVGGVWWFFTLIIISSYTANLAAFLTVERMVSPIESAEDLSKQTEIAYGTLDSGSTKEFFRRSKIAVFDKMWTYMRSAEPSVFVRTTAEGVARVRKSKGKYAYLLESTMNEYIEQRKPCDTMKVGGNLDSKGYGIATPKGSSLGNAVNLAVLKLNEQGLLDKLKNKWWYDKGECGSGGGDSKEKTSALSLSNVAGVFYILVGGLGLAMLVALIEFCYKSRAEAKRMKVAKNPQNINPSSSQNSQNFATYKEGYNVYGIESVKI
MAOA: Amine oxidase [flavin-containing] A (MAOA, Homo sapiens, UniProt P21397)
UniProt P21397, sequence (whole entry, looked up): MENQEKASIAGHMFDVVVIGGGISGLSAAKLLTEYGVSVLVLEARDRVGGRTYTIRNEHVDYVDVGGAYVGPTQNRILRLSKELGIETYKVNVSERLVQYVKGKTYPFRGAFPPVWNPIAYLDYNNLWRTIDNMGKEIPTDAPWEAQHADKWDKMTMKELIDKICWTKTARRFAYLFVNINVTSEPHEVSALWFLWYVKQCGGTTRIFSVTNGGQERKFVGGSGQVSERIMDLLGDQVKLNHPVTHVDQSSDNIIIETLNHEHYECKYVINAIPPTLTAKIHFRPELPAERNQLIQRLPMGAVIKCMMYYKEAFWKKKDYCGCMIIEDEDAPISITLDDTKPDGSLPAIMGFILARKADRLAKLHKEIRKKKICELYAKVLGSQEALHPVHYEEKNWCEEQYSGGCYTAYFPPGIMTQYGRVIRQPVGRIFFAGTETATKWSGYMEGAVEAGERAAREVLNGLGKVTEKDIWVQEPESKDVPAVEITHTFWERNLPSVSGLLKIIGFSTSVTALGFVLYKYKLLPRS
VKORC1: Vitamin K epoxide reductase complex subunit 1 (VKORC1, Homo sapiens, UniProt Q9BQB6)
UniProt Q9BQB6, sequence (whole entry, looked up): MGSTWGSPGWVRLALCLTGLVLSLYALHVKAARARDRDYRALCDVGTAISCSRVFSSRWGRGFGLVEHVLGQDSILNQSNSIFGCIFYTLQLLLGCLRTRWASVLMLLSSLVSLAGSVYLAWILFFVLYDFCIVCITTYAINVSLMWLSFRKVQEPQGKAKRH
Genome polyprotein NS2B-NS3 protease: Genome polyprotein, NS2B-NS3 protease (dengue virus type 2, UniProt P29990)
DDR2: Discoidin domain-containing receptor 2 (DDR2, Homo sapiens, UniProt Q16832)
UniProt Q16832, sequence (whole entry, looked up): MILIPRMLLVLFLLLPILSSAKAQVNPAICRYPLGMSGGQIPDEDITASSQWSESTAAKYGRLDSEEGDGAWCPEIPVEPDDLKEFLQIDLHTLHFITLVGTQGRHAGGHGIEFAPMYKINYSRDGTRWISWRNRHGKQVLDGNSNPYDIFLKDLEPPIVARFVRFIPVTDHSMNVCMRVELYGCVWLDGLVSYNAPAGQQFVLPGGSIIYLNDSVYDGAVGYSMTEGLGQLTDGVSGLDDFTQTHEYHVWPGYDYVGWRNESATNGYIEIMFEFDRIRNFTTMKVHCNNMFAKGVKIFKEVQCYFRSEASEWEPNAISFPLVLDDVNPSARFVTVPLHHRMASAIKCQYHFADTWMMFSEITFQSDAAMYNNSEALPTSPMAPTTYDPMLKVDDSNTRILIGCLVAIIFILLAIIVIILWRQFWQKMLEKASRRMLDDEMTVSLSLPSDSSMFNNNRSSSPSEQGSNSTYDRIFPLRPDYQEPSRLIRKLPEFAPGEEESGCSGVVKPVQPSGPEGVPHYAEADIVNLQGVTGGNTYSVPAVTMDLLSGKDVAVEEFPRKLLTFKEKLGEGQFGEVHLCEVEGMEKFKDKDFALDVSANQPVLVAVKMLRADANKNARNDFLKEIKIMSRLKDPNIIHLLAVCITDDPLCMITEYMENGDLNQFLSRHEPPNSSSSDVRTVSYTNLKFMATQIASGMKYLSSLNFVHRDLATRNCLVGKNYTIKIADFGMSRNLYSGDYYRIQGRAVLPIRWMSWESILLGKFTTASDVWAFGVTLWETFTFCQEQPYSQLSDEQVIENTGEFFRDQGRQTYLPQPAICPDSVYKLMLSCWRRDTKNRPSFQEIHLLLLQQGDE
DGKA: Diacylglycerol kinase alpha (DGKA, Homo sapiens, UniProt P23743)
UniProt P50613, sequence (whole entry, looked up): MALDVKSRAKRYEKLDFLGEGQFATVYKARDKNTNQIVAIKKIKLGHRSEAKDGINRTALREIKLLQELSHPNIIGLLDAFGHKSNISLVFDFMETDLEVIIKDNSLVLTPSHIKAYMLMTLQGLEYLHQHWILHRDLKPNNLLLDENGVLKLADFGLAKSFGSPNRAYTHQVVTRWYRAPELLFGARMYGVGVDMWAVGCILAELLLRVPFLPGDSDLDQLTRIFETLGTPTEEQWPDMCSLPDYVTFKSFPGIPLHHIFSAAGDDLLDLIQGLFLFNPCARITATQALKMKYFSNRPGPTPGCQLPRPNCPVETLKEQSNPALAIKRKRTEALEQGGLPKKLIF
UniProt P08684, sequence (whole entry, looked up): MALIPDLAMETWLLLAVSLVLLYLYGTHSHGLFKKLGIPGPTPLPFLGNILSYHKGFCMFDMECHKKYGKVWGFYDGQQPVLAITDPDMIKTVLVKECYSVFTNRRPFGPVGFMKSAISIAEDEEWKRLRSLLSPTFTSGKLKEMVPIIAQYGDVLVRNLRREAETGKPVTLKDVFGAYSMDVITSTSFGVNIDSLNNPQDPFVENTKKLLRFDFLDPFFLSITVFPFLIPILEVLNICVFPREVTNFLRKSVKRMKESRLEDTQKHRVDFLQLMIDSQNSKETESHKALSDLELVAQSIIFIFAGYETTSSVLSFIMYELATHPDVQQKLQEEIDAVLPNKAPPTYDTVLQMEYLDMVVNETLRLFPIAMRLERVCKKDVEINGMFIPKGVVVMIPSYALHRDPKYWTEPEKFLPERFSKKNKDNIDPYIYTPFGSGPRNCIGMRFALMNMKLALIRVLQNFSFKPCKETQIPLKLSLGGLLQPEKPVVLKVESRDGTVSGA

COC(=O)CCCCCCC(=O)Nc1ccc(Nc2ncc(F)c(-c3cc(F)c4nc(C)n(C(C)C)c4c3)n2)nc1
IC50 (CDK4): 2.9 nM

N=C(N)NCCC[C@H](NC(=O)[C@H](CCCCNC(=S)NCCC(=O)O)NS(=O)(=O)c1cccc(F)c1)C(=O)NC1CCC1
IC50 (SIRT5 (Homo sapiens, UniProt Q9NXA8); inhibitor, fluorogenic; pre-incubation 4 h, with: NAD+ 500 µM): 47 ± 1 nM

Cc1nc2c(F)cc(-c3nc(Nc4ccc(C(=O)NCCCC(=O)NO)cc4)ncc3F)cc2n1C(C)C
IC50 (CDK4): 11 nM

Nc1ncc2c(n1)-c1c([nH]c3ccc(C4=CCOCC4)cc13)CCC2
IC50 (DYRK1A; target engagement in cells, BRET): > 10000 nM

COC(=O)CCCC(=O)Nc1ccc(Nc2ncc(F)c(-c3cc(F)c4nc(C)n(C(C)C)c4c3)n2)cc1
IC50 (CDK4): 2.1 nM

Clc1ccc(NN=C(c2ccccc2)c2ccccn2)nc1
IC50 (KDM4A (Homo sapiens, UniProt O75164); enzyme activity, inhibitor, ELISA): 445 nM

CCCC[C@H](NC(=O)CNC(=O)CNC(=O)[C@H](CCCCNC(=O)[C@H](CC(=O)O)NC(=O)C(C)c1ccc(CC(C)C)cc1)NC(=O)CN1CCN(CC(=O)O)CCN(CC(=O)O)CCN(CC(=O)O)CC1)C(=O)N[C@H]1CC(=O)NCCCC[C@@H](C(N)=O)NC(=O)[C@H](Cc2c[nH]c3ccccc23)NC(=O)[C@H](CCCNC(=N)N)NC(=O)[C@@H](Cc2ccccc2)NC(=O)[C@H](Cc2c[nH]cn2)NC1=O (some centres unmarked)
IC50 (Mc1r; radioligand binding, competitor; B16-F10 mouse melanoma; 2 h, 25 °C, with: radiolabelled NDP-MSH): 1.52 ± 0.08 nM

O=C(Nc1ccc(C(=O)Nc2ccc3c(O)cc(S(=O)(=O)O)cc3c2)cc1)c1ccccc1
IC50 (Trex1 (Mus musculus, UniProt Q91XB0); enzyme activity, inhibitor): 30300 nM

N#CN1CC[C@H](C(=O)Nc2nc3c(s2)CN(C(=O)Cn2cc(COCCOCCOCCOCCNC(=O)CCCC[C@@H]4SC[C@@H]5NC(=O)N[C@@H]54)nn2)CC3)C1
IC50 (UCHL1; enzyme activity, inhibitor, fluorescence; with preincubation): 640 nM

CC(C)c1ccc(OS(=O)(=O)Oc2cncc(C(=O)NO)c2)cc1
IC50 (HDAC11 (Homo sapiens, UniProt Q96DB2)): 3760 nM

Fc1ccc2nc(NCCCNCc3cc(Cl)cc(Cl)c3)[nH]c2n1
IC50 (MARS2; enzyme activity, inhibitor): 19.5 nM

COC(=O)CCCCC(=O)Nc1ccc(Nc2ncc(F)c(-c3cc(F)c4nc(C)n(C(C)C)c4c3)n2)cc1
IC50 (CDK4): 1.5 nM

O=C(O)Cc1cc2c(cc1C(=O)c1cccc(Br)c1)OCO2
IC50 (Gria2; ion current, patch clamp): 4260 nM

Cc1cc(C)c(S(=O)(=O)N(CC(=O)O)c2ccc(Nc3ccnc(N4CCCC4)n3)cc2)c(C)c1
IC50 (CDK4; enzyme activity, inhibitor): > 100000 nM

O=c1cc(-c2cccc(O)c2)oc2c1ccc1occc12
IC50 (Cyclin-dependent kinase 7, with cyclin H (CDK7, Homo sapiens, UniProt P50613); enzyme activity, inhibitor, ADP detection): 933 nM and 930 nM

Cc1nc2c(F)cc(-c3nc(Nc4ccc(NC(=O)CCCCC(=O)NO)cc4)ncc3F)cc2n1C(C)C
IC50 (CDK4): 1.2 nM

Cc1cc(O)c2c(c1)C(=O)c1cc(O)c(O)c(O)c1C2=O
IC50 (MAOA; enzyme activity, inhibitor): 91400 nM

Cc1nn(-c2cccc(N)c2)c(=O)c2cnc(Nc3ccc(N4CCNCC4)cc3)nc12
IC50 (RPS6KA3 (Homo sapiens, UniProt P51812); enzyme activity, inhibitor): 1490 nM

CC1CCCN(C(=O)Cn2ncc3cccn3c2=O)C1 (centres unmarked)
IC50 (VKORC1; carboxylation, inhibitor, cell-based): 22500 nM

O=C1NCc2nc3c(ccc4ccccc43)cc21
IC50 (DYRK1A; enzyme activity, inhibitor, ADP detection): 300 nM

Cc1ccc(-c2nn(-c3ccc(S(C)(=O)=O)cc3)cc2/C=N/N=C2/NC(=O)CS2)cc1
IC50 (EGFR (Homo sapiens, UniProt P00533, L858R/T790M); enzyme activity, inhibitor): 51 nM

CNC(=O)c1ccc(-c2cc(Cl)cc(Cl)c2Cl)c(N)n1
IC50 (SCN9A (Homo sapiens, UniProt Q15858); ion current, inhibitor, patch clamp): 24900 nM

COC(=O)CCCCCCCNC(=O)c1ccc(Nc2ncc(F)c(-c3cc(F)c4nc(C)n(C(C)C)c4c3)n2)cc1
IC50 (CDK4): 6.2 nM

Cc1cccc(C(=O)N2CCCC(Cn3nnc4c(O)nc(C)nc43)C2)c1 (centres unmarked)
IC50 (VKORC1; carboxylation, inhibitor, ELISA; HEK293 stably expressing; 24 h, with: vitamin K epoxide 5 µM): > 100000 nM

CCCCCCCC(=O)Nc1ccc(Nc2ncc(F)c(-c3cc(F)c4nc(C)n(C(C)C)c4c3)n2)cc1
IC50 (CDK4): 14 nM

O=C(O)Cc1cc2c(cc1C(=O)c1ccccc1Cl)OCO2
IC50 (Gria2; ion current, patch clamp): 4110 nM

Cc1cc(C(=O)NCC(F)(F)c2ccc(Cl)cc2Cl)c(Oc2cccc(C3CC3)c2)nn1
IC50 (serine palmitoyltransferase (Botrytis cinerea, UniProt A0A384JAG3+A0A384JQT2)): 2 nM

O=C(Nc1cccc(CN2CCc3nc[nH]c3C2)c1)c1cc(-c2ccccc2)n(-c2ccccc2)n1
IC50 (Genome polyprotein NS2B-NS3 protease; enzyme activity; with: AMC substrate 50 µM): 23000 nM

O=C(CN1CN(c2ccccc2)C2(CCN(C(=O)c3cc4cn[nH]c4cn3)CC2)C1=O)NCC(F)(F)F
IC50 (DDR2; ligand displacement): 14700 nM

C[C@@H]1CN(c2cc(=O)n(C)c3ccc(C#N)nc23)[C@H](C)CN1Cc1ccc(S(=O)(=O)n2cnc(C3CC3)n2)cc1
IC50 (DGKA; inhibitor, ADP-Glo; with: DAG micelles): 1920 nM

CCCC[C@H](NC(=O)CNC(=O)CNC(C)=O)C(=O)N[C@@H](CS)C(=O)N[C@@H](CS)C(=O)N[C@@H](CCC(=O)O)C(=O)N[C@@H](Cc1c[nH]cn1)C(=O)N[C@H](Cc1ccccc1)C(=O)N[C@@H](CCCNC(=N)N)C(=O)N[C@@H](Cc1c[nH]c2ccccc12)C(=O)N[C@@H](CS)C(N)=O
IC50 (Mc1r; ligand displacement, radioligand): 27.1 nM

CCCCCCN(O)C(=O)CCCCC[C@@H]1NC(=O)[C@H]([C@@H](C)CC)NC(=O)[C@H](Cc2ccccc2C(F)(F)F)NC(=O)CCSCc2cccc(n2)CSCCCNC1=O
IC50 (HDAC4 (Homo sapiens, UniProt P56524); enzyme activity, inhibitor, fluorogenic): > 30000 nM

CC(C)(COP(=O)(O)OP(=O)(O)OC[C@H]1O[C@@H](n2cnc3c(N)ncnc32)[C@H](O)[C@@H]1OP(=O)(O)O)[C@@H](O)C(=O)NCCC(=O)NCCSCCC(=O)N[C@@H](CO)C(=O)NCC(=O)N[C@@H](CCCNC(=N)N)C(=O)NCC(=O)N[C@@H](CCCCN)C(=O)NCCCC[C@H](NC(=O)CC[C@@H]1NC(=O)[C@@H](CCCNC(=N)N)NC(=O)[C@H](CCCNC(=N)N)NC(=O)[C@@H](CCCNC(=N)N)NC(=O)[C@H](CCCNC(=N)N)NC(=O)[C@H](Cc2csc3ccccc23)NC(=O)[C@@H](Cc2ccccc2)NC(=O)[C@H](Cc2ccccc2)NC1=O)C(N)=O
IC50 (NAA40 (Homo sapiens, UniProt Q86UY6); enzyme activity, inhibitor, fluorescence): 46 nM

CN1CCc2cc(Br)c(O)cc2C(c2ccc(NC(=O)CCOCCOCCN=[N+]=[N-])cc2)C1 (centres unmarked)
IC50 (DRD1 (Homo sapiens, UniProt P21728); cell-based): 93.3 nM

CNC(=O)Cc1cccc(CNC(=O)CN2CN(c3ccccc3)C3(CCN(C(=O)c4ccc5[nH]ncc5c4)CC3)C2=O)c1
IC50 (DDR2; ligand displacement): 5300 nM

CCOC(=O)c1cnc(NCc2cccc(NC(=O)c3cc(-c4ccccc4)n(-c4ccccc4)n3)c2)nc1
IC50 (Genome polyprotein NS2B-NS3 protease; enzyme activity; with: AMC substrate 50 µM): 21000 nM

O=C(CN1CN(c2ccccc2)C2(CCN(C(=O)c3ccc4[nH]ncc4c3)CC2)C1=O)Nc1ccccc1
IC50 (DDR2; ligand displacement): 344 nM

CC(C)(C)n1ncc2c(=O)n(Cc3cccc(F)c3)c(NCc3ccc(F)cn3)nc21
IC50 (Cytochrome P450 3A4 (CYP3A4, Homo sapiens, UniProt P08684); enzyme activity, inhibitor; human liver): > 15000 nM

O=C(CCl)Nc1nc2ccc([N+](=O)[O-])cc2s1
IC50 (UCHL1; enzyme activity, inhibitor, Ub-rhodamine): 14000 nM

CC(C)c1ccc(/C=C/C(=O)c2ccc(Br)s2)cc1
IC50 (MAOA; enzyme activity, inhibitor): 310 nM

Cc1nc(O)c2nnn(CC3CCCN(C(=O)c4c(F)cccc4F)C3)c2n1 (centres unmarked)
IC50 (VKORC1; carboxylation, inhibitor, ELISA; HEK293 stably expressing; 24 h, with: vitamin K epoxide 5 µM): > 100000 nM

CC[C@H]1CN([C@@H](CC)c2ccc(C(F)(F)F)cc2)[C@H](CC)CN1c1nc(=O)n(C)c2ccc(C#N)nc12
IC50 (DGKA; enzyme activity, inhibitor, ADP detection): 0.3 nM

Cc1cc(C)n(-c2nc(OCC(=O)N(C)CCc3ccccc3)cc(-c3ccccc3)n2)n1
IC50 (LNPEP (Homo sapiens, UniProt Q9UIQ6); enzyme activity, inhibitor, fluorescence): 4000 nM

Fc1ccc2nc(NCCCN[C@@H]3CCOc4c(Cl)cc(Cl)cc43)[nH]c2n1
IC50 (MARS2; enzyme activity, inhibitor): 20.5 nM

A few entries again:
Cc1nc2c(F)cc(-c3nc(Nc4ccc(NC(=O)CCCCC(=O)NO)cc4)ncc3F)cc2n1C(C)C
IC50 (CDK4): 1.2 nM

N#CN1CC[C@H](C(=O)Nc2nc3c(s2)CN(C(=O)Cn2cc(COCCOCCOCCOCCNC(=O)CCCC[C@@H]4SC[C@@H]5NC(=O)N[C@@H]54)nn2)CC3)C1
IC50 (UCHL1; enzyme activity, inhibitor, fluorescence; with preincubation): 640 nM

CCCC[C@H](NC(=O)CNC(=O)CNC(C)=O)C(=O)N[C@@H](CS)C(=O)N[C@@H](CS)C(=O)N[C@@H](CCC(=O)O)C(=O)N[C@@H](Cc1c[nH]cn1)C(=O)N[C@H](Cc1ccccc1)C(=O)N[C@@H](CCCNC(=N)N)C(=O)N[C@@H](Cc1c[nH]c2ccccc12)C(=O)N[C@@H](CS)C(N)=O
IC50 (Mc1r; ligand displacement, radioligand): 27.1 nM

COC(=O)CCCC(=O)Nc1ccc(Nc2ncc(F)c(-c3cc(F)c4nc(C)n(C(C)C)c4c3)n2)cc1
IC50 (CDK4): 2.1 nM

CN1CCc2cc(Br)c(O)cc2C(c2ccc(NC(=O)CCOCCOCCN=[N+]=[N-])cc2)C1 (centres unmarked)
IC50 (DRD1 (Homo sapiens, UniProt P21728); cell-based): 93.3 nM

CC(C)(C)n1ncc2c(=O)n(Cc3cccc(F)c3)c(NCc3ccc(F)cn3)nc21
IC50 (Cytochrome P450 3A4 (CYP3A4, Homo sapiens, UniProt P08684); enzyme activity, inhibitor; human liver): > 15000 nM

O=C(CCl)Nc1nc2ccc([N+](=O)[O-])cc2s1
IC50 (UCHL1; enzyme activity, inhibitor, Ub-rhodamine): 14000 nM
